Experimental data from different studies.
Values after ≈ are worked out from the molar mass of the structure shown.

| Compound | organism | assay | system | conditions | scale | endpoint | result |
| --- | --- | --- | --- | --- | --- | --- | --- |
| CC(C)C[C@H](NC(=O)CNC(=O)[C@H](Cc1ccccc1)NC(=O)[C@H](Cc1ccccc1)NC(=O)[C@H](CCCNC(=N)N)NC(=O)[C@H](CCCCN)NC(=O)[C@H](CO)NC(=O)[C@H](CC(N)=O)NC(=O)[C@H](CC(C)C)NC(=O)CNC(=O)[C@H](CO)NC(=O)[C@@H](NC(=O)[C@@H](N)CC(C)C)C(C)C)C(=O)N[C@@H](CCCCN)C(=O)NCC(=O)NCC(=O)N[C@@H](CC(N)=O)C(=O)N[C@@H](CC(C)C)C(=O)N[C@@H](Cc1ccccc1)C(=O)N[C@@H](CCCCN)C(=O)N[C@@H](CCCCN)C(=O)N[C@@H](C)C(=O)N[C@@H](CC(C)C)C(=O)N[C@@H](CCCCN)C(=O)N[C@@H](CC(N)=O)C(=O)N[C@H](C(=O)N[C@@H](CO)C(=O)N[C@H](C(=O)N[C@@H](Cc1ccccc1)C(=O)NCC(=O)N[C@@H](CCCCN)C(=O)N[C@@H](C)C(=O)NCC(=O)N[C@H](C(=O)N[C@H](C(=O)N[C@@H](CO)C(=O)N[C@@H](C)C(=O)N[C@@H](CC(C)C)C(=O)N[C@@H](CCCNC(=N)N)C(=O)O)[C@@H](C)O)C(C)C)C(C)C)C(C)C | Gram-negative bacteria | MIC | – | concentration not given | – | antibacterial activity | active |
| CC(=O)Nc1cccc(CNC(=O)c2cnc3ccccc3c2C(F)(F)F)c1 | Drosophila melanogaster | – | APP Alzheimer model adult flies | oral in food, 100 µM, dosed from embryogenesis | – | median survival | 30 days |
| C=C(C)[C@@H]1CC[C@]2(C(=O)N3CCN(C)CC3)CC[C@]3(C)[C@H](CC[C@@H]4[C@@]5(C)CCCNC(C)(C)[C@@H]5CC[C@]43C)[C@@H]12 | Human cytomegalovirus | – | HFF, AD169 | – | reference: CC50 over EC50 | selectivity index | < 3 |
| CC(C)C[C@@H]1NC(=O)[C@H](CCCCN)NC(=O)[C@H](C(C)C)NC(=O)[C@@H]2CCCN2C(=O)[C@@H](Cc2ccc(O)cc2)NC(=O)[C@H](CC(C)C)NC(=O)[C@H](CCCCN)NC(=O)[C@H](C(C)C)NC(=O)[C@@H]2CCCN2C(=O)[C@@H](Cc2ccc(O)cc2)NC(=O)[C@H](CCCCN)NC1=O | Gram-negative bacteria | – | – | 24 h, 7 strains | – | MIC geometric mean | 86.1 µg/mL (≈ 64.8 µM) |
| C=C(C)[C@@H]1CCC=C2CC[C@]3(C)[C@H](CC[C@@H]4[C@@]5(C)CCCNC(C)(C)[C@@H]5CC[C@]43C)[C@H]21 | Human cytomegalovirus | – | HFF, AD169 | – | reference: CC50 over EC50 | selectivity index | < 3 |
| C=CCc1ccc(OCc2ccccc2)c(OC)c1 | Spodoptera frugiperda | – | larvae | 500 µg/mL | reference: untreated control | antifeedant index | 47.5% |
| CCCCCCCCCC(=O)OCC1OC(n2cc(C)c(=O)[nH]c2=O)CC1N(C)C (stereo not drawn) | respiratory syncytial virus | viral replication | HeLa | – | – | EC50 | > 0.23 µM |
| CC(=O)O[C@H]1C[C@@H](C)O[C@H]2O[C@@H]3C[C@@H]4CC[C@@H]5[C@H](CC[C@]6(C)[C@@H](C7=CC(=O)OC7)CC[C@]56O)[C@@]4(C)C[C@H]3O[C@]21O | Schistosoma mansoni | microscopic viability score | adult worms | 0.1 µM, 72 h | – | viability effect | 29% |
| CC[C@H](C)[C@H](NC(=O)[C@H](CCCCN)NC(=O)[C@H](CCCCN)NC(=O)[C@H](CC(C)C)NC(=O)[C@H](CCCCN)NC(=O)[C@H](CCC(=O)O)NC(=O)[C@H](CCCCN)NC(=O)[C@@H](NC(=O)[C@H](CCCCN)NC(=O)[C@H](CC(N)=O)NC(=O)[C@H](CCCNC(=N)N)NC(=O)[C@H](Cc1ccccc1)NC(=O)[C@H](CCCCN)NC(=O)[C@H](CCCNC(=N)N)NC(=O)[C@H](CC(C)C)NC(=O)[C@H](CCCNC(=N)N)NC(=O)[C@H](CCCCN)NC(=O)[C@H](CCCNC(=N)N)NC(=O)[C@H](CC(C)C)NC(=O)[C@@H](N)CC(C)C)[C@@H](C)CC)C(=O)NCC(=O)N[C@@H](CCC(N)=O)C(=O)N[C@@H](CCCCN)C(=O)N[C@H](C(=O)N[C@@H](CCC(N)=O)C(=O)NCC(=O)N[C@@H](Cc1ccccc1)C(=O)N[C@H](C(=O)N1CCC[C@H]1C(=O)N[C@@H](CCCCN)C(=O)N[C@@H](CC(C)C)C(=O)N[C@H](C(=O)N1CCC[C@H]1C(=O)N[C@@H](CCCNC(=N)N)C(=O)N[C@H](C(=O)N[C@@H](CCC(=O)O)C(=O)N[C@@H](CO)C(=O)O)[C@@H](C)O)C(C)C)C(C)C)[C@@H](C)CC | Alcaligenes faecalis | inhibition zone | CGMCC 1.184 | – | – | lethal concentration | 2.31 µM |
| CC[C@@H](C)[C@@H](NC(=O)[C@@H](C)NC(=O)[C@@H](CCCCN)NC(=O)[C@@H](CC(C)C)NC(=O)[C@@H](CC(C)C)NC(=O)[C@H](NC(=O)[C@@H](CCCCN)NC(=O)[C@@H](CC(C)C)NC(=O)[C@@H](C)NC(=O)[C@@H](CCCCN)NC(=O)[C@@H](CCCCN)NC(=O)[C@@H](CCCCN)NC(=O)[C@@H](C)NC(=O)[C@@H](CCCCN)NC(=O)[C@@H](CO)NC(=O)[C@@H](Cc1ccccc1)NC(=O)[C@H](NC(=O)[C@@H](CCCCN)NC(=O)[C@@H](CC(C)C)NC(=O)[C@@H](Cc1ccccc1)NC(=O)[C@@H](CO)NC(=O)[C@@H](CCCCN)NC(=O)[C@@H](Cc1c[nH]c2ccccc12)NC(=O)[C@@H](CCCCN)NC(C)=O)[C@H](C)O)[C@H](C)O)C(=O)N[C@H](CO)C(=O)N[C@H](CCCCN)C(N)=O | Acinetobacter baumannii | – | 11 isolates | – | reference: HC50 over geometric mean MIC | therapeutic index | 102 |
| CCCCCCCCCCCCCC(=O)N[C@@H]1CCNC(=O)[C@H](CC(=O)O)NC(=O)[C@H](C(C)C)NC(=O)[C@@H](Cc2ccc(O)cc2)NC(=O)[C@H](CCN)NC(=O)[C@H](CC(C)C)NC(=O)[C@@H](Cc2ccccc2)NC(=O)[C@H](CCN)NC(=O)[C@H](CC(C)C)NC(=O)[C@H](CCN)NC(=O)[C@H]([C@@H](C)O)NC1=O | ESKAPE pathogens | – | – | concentration not given | reference: MIC with serum over without | MIC fold change with serum | 2 fold |
| O=C(Cn1ccc(=O)c2ccccc21)N/N=C/c1cc(Br)c(O)c(Br)c1 | Rhizoctonia solani | microbial growth | – | 50 µg/mL | – | inhibition | 25% |
| COc1ccc(S(=O)(=O)NCc2c[nH]nc2-c2cccs2)cc1 | Plasmodium falciparum | – | – | – | – | EC90 | 35.5 µM |
| CC[C@H](C)[C@H](NC(=O)[C@H](CCCCN)NC(=O)[C@H](CCCCN)NC(=O)[C@H](CC(C)C)NC(=O)[C@H](CCCCN)NC(=O)[C@H](CCC(=O)O)NC(=O)[C@H](CCCCN)NC(=O)[C@@H](NC(=O)[C@H](CCCCN)NC(=O)[C@H](CC(N)=O)NC(=O)[C@H](CCCNC(=N)N)NC(=O)[C@H](Cc1ccccc1)NC(=O)[C@H](CCCCN)NC(=O)[C@H](CCCNC(=N)N)NC(=O)[C@H](CC(C)C)NC(=O)[C@H](CCCNC(=N)N)NC(=O)[C@H](CCCCN)NC(=O)[C@H](CCCNC(=N)N)NC(=O)[C@H](CC(C)C)NC(=O)[C@@H](N)CCCNC(=N)N)[C@@H](C)CC)C(=O)NCC(=O)N[C@@H](CCC(N)=O)C(=O)N[C@@H](CCCCN)C(=O)N[C@H](C(=O)N[C@@H](CCC(N)=O)C(=O)NCC(=O)N[C@@H](Cc1ccccc1)C(=O)N[C@H](C(=O)N1CCC[C@H]1C(=O)N[C@@H](CCCCN)C(=O)N[C@@H](CC(C)C)C(=O)N[C@@H](CCC(N)=O)C(=O)N1CCC[C@H]1C(=O)N[C@@H](CO)C(=O)N[C@@H](CCCCN)C(=O)N[C@@H](CCC(N)=O)C(=O)N[C@@H](CO)C(=O)O)C(C)C)[C@@H](C)CC | Streptococcus sanguinis | inhibition zone | ATCC 1.2497 | LB agar, overnight | – | lethal concentration | 3.83 µM |
| C=CCc1ccc(OCC(=C)C)c(OC)c1 | Spodoptera frugiperda | insecticidal activity | larvae | topical | – | LD50 | 1930 mg/kg |
| CC(=O)c1c(O)c(C)c(O)c2c1OC1=CC(=O)/C3=C(/C)N[C@H](C(=O)O)CC1=CC=CC=C[C@@]2(C)C3=O | Candida tropicalis | broth microdilution | ATCC 750 fluconazole and amphotericin B resistant | 24 and 48 h | – | MIC99 | 0.4 µM (≈ 0.197 µg/mL) |
| C=CCc1ccc(OCC=C(C)C)c(OC)c1 | Spodoptera frugiperda | – | larvae | 50 µg/mL | reference: untreated control | antifeedant index | 24.9% |
| N=C(N)NCCC[C@@H]1NC(=O)[C@H](Cc2ccc(O)cc2)NC(=O)[C@H](CO)N2CC[C@@H](C2=O)N2CC[C@H](NC(=O)[C@@H]3CCCN3C(=O)[C@H](Cc3ccc(O)cc3)NC1=O)C2=O | HIV-1 | Alu-PCR qPCR | HeLa-CD4 | concentration not given, 18 h | – | proviral integration | inhibited |

Excerpt of the above:
| Compound | organism | assay | system | conditions | scale | endpoint | result |
| --- | --- | --- | --- | --- | --- | --- | --- |
| CC[C@@H](C)[C@@H](NC(=O)[C@@H](C)NC(=O)[C@@H](CCCCN)NC(=O)[C@@H](CC(C)C)NC(=O)[C@@H](CC(C)C)NC(=O)[C@H](NC(=O)[C@@H](CCCCN)NC(=O)[C@@H](CC(C)C)NC(=O)[C@@H](C)NC(=O)[C@@H](CCCCN)NC(=O)[C@@H](CCCCN)NC(=O)[C@@H](CCCCN)NC(=O)[C@@H](C)NC(=O)[C@@H](CCCCN)NC(=O)[C@@H](CO)NC(=O)[C@@H](Cc1ccccc1)NC(=O)[C@H](NC(=O)[C@@H](CCCCN)NC(=O)[C@@H](CC(C)C)NC(=O)[C@@H](Cc1ccccc1)NC(=O)[C@@H](CO)NC(=O)[C@@H](CCCCN)NC(=O)[C@@H](Cc1c[nH]c2ccccc12)NC(=O)[C@@H](CCCCN)NC(C)=O)[C@H](C)O)[C@H](C)O)C(=O)N[C@H](CO)C(=O)N[C@H](CCCCN)C(N)=O | Acinetobacter baumannii | – | 11 isolates | – | reference: HC50 over geometric mean MIC | therapeutic index | 102 |
| CC[C@H](C)[C@H](NC(=O)[C@H](CCCCN)NC(=O)[C@H](CCCCN)NC(=O)[C@H](CC(C)C)NC(=O)[C@H](CCCCN)NC(=O)[C@H](CCC(=O)O)NC(=O)[C@H](CCCCN)NC(=O)[C@@H](NC(=O)[C@H](CCCCN)NC(=O)[C@H](CC(N)=O)NC(=O)[C@H](CCCNC(=N)N)NC(=O)[C@H](Cc1ccccc1)NC(=O)[C@H](CCCCN)NC(=O)[C@H](CCCNC(=N)N)NC(=O)[C@H](CC(C)C)NC(=O)[C@H](CCCNC(=N)N)NC(=O)[C@H](CCCCN)NC(=O)[C@H](CCCNC(=N)N)NC(=O)[C@H](CC(C)C)NC(=O)[C@@H](N)CCCNC(=N)N)[C@@H](C)CC)C(=O)NCC(=O)N[C@@H](CCC(N)=O)C(=O)N[C@@H](CCCCN)C(=O)N[C@H](C(=O)N[C@@H](CCC(N)=O)C(=O)NCC(=O)N[C@@H](Cc1ccccc1)C(=O)N[C@H](C(=O)N1CCC[C@H]1C(=O)N[C@@H](CCCCN)C(=O)N[C@@H](CC(C)C)C(=O)N[C@@H](CCC(N)=O)C(=O)N1CCC[C@H]1C(=O)N[C@@H](CO)C(=O)N[C@@H](CCCCN)C(=O)N[C@@H](CCC(N)=O)C(=O)N[C@@H](CO)C(=O)O)C(C)C)[C@@H](C)CC | Streptococcus sanguinis | inhibition zone | ATCC 1.2497 | LB agar, overnight | – | lethal concentration | 3.83 µM |
| CC(C)C[C@H](NC(=O)CNC(=O)[C@H](Cc1ccccc1)NC(=O)[C@H](Cc1ccccc1)NC(=O)[C@H](CCCNC(=N)N)NC(=O)[C@H](CCCCN)NC(=O)[C@H](CO)NC(=O)[C@H](CC(N)=O)NC(=O)[C@H](CC(C)C)NC(=O)CNC(=O)[C@H](CO)NC(=O)[C@@H](NC(=O)[C@@H](N)CC(C)C)C(C)C)C(=O)N[C@@H](CCCCN)C(=O)NCC(=O)NCC(=O)N[C@@H](CC(N)=O)C(=O)N[C@@H](CC(C)C)C(=O)N[C@@H](Cc1ccccc1)C(=O)N[C@@H](CCCCN)C(=O)N[C@@H](CCCCN)C(=O)N[C@@H](C)C(=O)N[C@@H](CC(C)C)C(=O)N[C@@H](CCCCN)C(=O)N[C@@H](CC(N)=O)C(=O)N[C@H](C(=O)N[C@@H](CO)C(=O)N[C@H](C(=O)N[C@@H](Cc1ccccc1)C(=O)NCC(=O)N[C@@H](CCCCN)C(=O)N[C@@H](C)C(=O)NCC(=O)N[C@H](C(=O)N[C@H](C(=O)N[C@@H](CO)C(=O)N[C@@H](C)C(=O)N[C@@H](CC(C)C)C(=O)N[C@@H](CCCNC(=N)N)C(=O)O)[C@@H](C)O)C(C)C)C(C)C)C(C)C | Gram-negative bacteria | MIC | – | concentration not given | – | antibacterial activity | active |
